Measured values gathered from unrelated publications.
Lines come from different studies, so protocols differ. ± marks the error that the study gave.
ABL2 SH2 domain: Tyrosine-protein kinase ABL2, SH2 domain (ABL2, Homo sapiens, UniProt P42684)
Sequence of UniProt P42684 (whole entry, looked up): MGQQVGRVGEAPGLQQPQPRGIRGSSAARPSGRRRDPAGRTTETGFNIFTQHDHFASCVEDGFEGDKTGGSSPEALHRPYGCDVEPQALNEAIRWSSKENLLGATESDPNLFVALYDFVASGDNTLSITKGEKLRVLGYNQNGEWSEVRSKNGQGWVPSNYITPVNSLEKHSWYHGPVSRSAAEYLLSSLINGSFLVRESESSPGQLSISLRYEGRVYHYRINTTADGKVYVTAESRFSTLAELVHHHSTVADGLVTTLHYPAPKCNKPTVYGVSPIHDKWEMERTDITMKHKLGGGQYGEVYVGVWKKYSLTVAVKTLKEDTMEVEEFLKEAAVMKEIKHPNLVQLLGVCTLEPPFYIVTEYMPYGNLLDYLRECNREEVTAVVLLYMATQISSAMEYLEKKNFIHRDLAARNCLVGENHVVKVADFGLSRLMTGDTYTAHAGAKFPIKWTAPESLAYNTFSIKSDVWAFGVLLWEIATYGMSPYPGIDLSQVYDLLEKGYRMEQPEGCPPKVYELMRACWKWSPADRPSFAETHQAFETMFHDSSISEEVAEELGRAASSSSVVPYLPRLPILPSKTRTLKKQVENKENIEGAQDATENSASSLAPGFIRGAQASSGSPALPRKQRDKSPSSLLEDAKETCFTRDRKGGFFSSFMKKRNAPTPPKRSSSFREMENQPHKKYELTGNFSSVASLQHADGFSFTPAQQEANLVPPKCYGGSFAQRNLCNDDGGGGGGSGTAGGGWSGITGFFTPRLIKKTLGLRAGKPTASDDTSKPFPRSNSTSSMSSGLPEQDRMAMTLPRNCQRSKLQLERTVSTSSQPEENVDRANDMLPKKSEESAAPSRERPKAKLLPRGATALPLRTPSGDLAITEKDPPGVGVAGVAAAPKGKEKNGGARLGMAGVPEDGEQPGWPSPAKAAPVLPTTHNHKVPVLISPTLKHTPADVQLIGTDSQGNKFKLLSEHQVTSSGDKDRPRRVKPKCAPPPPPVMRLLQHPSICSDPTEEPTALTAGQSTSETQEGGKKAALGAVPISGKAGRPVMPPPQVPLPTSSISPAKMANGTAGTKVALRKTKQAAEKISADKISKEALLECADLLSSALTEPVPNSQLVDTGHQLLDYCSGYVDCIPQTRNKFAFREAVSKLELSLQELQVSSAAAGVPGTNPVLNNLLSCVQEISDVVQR
Sequence of UniProt P02763 (whole entry, looked up): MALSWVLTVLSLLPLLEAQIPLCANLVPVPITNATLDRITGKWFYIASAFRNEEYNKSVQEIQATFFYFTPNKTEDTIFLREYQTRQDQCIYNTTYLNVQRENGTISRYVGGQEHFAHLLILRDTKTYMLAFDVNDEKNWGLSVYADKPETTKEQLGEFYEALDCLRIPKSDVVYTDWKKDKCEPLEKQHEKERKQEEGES
Sequence of UniProt P05046 (whole entry, looked up): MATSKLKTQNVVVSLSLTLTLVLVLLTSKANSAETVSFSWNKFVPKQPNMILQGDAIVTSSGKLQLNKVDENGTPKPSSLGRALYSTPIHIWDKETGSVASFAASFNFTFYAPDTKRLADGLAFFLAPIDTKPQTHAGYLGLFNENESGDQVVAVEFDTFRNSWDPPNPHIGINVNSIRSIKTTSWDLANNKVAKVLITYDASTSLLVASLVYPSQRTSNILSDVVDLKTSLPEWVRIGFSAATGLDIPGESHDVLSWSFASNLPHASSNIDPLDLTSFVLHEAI
Sequence of UniProt Q16620 (whole entry, looked up): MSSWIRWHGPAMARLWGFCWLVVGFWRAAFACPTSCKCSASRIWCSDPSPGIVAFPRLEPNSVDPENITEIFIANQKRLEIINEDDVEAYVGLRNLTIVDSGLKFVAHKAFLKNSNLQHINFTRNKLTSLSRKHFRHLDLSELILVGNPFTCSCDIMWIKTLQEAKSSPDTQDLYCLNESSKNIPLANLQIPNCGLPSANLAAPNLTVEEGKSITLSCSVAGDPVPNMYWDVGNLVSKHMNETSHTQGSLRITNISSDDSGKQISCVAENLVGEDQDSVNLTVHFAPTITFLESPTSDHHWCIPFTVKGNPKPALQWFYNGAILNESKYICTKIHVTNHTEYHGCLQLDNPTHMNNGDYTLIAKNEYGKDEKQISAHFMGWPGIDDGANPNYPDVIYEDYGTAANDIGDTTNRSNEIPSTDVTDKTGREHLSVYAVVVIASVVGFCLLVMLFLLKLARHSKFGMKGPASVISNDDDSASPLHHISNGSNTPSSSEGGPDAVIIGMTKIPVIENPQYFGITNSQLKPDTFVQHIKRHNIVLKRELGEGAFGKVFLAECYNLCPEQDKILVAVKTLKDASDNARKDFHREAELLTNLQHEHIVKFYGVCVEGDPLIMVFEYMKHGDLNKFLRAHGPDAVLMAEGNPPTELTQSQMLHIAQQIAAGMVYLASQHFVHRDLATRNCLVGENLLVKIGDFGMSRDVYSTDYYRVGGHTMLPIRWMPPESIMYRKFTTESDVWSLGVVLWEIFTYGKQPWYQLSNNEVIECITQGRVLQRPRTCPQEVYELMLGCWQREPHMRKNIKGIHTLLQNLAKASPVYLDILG
Sequence of UniProt Q9HBL0 (whole entry, looked up): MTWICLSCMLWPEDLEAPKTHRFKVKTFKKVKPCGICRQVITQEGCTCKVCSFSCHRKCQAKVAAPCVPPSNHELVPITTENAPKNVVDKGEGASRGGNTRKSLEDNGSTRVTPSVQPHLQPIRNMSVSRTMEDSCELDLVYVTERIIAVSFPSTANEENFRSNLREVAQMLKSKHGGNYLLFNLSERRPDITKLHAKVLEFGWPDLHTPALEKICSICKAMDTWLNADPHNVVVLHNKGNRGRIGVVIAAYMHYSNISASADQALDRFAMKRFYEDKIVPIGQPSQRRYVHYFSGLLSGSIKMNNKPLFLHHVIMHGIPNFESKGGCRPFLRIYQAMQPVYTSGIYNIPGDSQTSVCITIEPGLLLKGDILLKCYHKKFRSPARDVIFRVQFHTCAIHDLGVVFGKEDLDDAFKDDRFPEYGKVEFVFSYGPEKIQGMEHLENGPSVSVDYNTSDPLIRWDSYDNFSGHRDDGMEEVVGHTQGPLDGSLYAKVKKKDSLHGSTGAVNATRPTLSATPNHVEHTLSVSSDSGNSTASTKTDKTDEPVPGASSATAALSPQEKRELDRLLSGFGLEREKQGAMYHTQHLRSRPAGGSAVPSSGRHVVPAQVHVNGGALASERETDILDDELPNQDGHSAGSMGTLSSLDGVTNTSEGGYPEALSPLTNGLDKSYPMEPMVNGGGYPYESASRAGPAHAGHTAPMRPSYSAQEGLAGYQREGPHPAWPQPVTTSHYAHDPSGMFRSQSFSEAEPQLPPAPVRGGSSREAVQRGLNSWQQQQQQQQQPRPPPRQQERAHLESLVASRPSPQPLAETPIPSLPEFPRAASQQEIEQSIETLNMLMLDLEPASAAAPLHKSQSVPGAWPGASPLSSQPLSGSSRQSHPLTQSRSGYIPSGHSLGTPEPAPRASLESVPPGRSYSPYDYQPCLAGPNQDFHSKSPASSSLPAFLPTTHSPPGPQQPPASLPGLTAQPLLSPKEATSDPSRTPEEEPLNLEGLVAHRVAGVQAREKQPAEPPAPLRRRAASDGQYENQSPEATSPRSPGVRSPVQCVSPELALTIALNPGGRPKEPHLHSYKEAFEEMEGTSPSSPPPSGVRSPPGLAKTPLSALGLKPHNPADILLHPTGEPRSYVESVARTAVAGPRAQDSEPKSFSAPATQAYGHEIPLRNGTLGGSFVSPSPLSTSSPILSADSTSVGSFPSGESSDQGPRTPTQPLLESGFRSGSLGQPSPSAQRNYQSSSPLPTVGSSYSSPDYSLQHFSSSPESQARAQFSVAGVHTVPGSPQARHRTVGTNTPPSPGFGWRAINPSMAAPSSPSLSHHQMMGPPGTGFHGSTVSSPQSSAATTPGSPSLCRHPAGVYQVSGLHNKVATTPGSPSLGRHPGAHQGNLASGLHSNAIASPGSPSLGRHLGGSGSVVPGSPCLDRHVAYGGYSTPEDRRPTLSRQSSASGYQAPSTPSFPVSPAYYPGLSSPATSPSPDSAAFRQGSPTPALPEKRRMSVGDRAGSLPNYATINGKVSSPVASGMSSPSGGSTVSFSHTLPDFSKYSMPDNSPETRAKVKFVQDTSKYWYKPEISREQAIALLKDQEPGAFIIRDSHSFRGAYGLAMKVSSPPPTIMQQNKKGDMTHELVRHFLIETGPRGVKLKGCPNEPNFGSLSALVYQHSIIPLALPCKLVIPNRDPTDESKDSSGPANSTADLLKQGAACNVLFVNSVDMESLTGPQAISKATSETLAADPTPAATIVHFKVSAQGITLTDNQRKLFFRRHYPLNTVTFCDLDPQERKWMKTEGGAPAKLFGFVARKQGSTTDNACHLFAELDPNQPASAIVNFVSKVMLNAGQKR
Sequence of UniProt P0DW57 (whole entry, looked up): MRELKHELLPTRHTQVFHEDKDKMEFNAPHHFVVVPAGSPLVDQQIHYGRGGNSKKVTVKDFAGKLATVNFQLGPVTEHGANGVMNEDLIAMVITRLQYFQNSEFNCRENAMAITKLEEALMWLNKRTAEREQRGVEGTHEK
Sequence of UniProt P10635 (whole entry, looked up): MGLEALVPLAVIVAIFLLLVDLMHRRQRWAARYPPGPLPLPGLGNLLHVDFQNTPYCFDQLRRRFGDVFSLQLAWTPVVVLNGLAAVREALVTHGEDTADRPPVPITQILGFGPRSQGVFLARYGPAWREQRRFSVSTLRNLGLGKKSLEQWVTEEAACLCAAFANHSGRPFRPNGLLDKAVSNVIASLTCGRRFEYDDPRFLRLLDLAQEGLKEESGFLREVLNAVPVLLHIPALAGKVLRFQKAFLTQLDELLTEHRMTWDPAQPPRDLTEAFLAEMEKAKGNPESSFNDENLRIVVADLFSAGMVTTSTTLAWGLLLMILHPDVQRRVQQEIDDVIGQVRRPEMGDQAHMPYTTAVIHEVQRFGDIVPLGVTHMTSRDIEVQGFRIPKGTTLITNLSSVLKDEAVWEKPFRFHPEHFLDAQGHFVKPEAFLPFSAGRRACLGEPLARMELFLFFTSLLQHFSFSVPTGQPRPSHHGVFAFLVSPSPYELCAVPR

SMILES | target | test | system | setting | Kd
CCCCCCCCCC(=O)CC(=O)N[C@H]1CCOC1=O | qscR, DNA-bound (Pseudomonas aeruginosa, UniProt G3XD77) | DNA binding, ligand, EMSA | – | 4 °C, saturating ligand | 0.00701 µM
CC(=O)N[C@H]1[C@@H](O[C@H](C)[C@H](NC(=O)[C@H](CO)NC(C)=O)C(=O)N[C@@H](CO)C(=O)NCC(=O)O)O[C@H](CO)[C@H](O)[C@@H]1O | Vicia villosa lectin | glycan microarray | – | 4 glycans per BSA | 0.012 ± 0.003 µM
Nc1ncnc2c1ncn2[C@@H]1O[C@@H]2COP(=O)(O)OP(=O)(O)OC[C@H]3O[C@@H](O[C@@H]1[C@@H]2O)[C@H](O)[C@@H]3O | Thoeris anti-defense 1 (tad1, Bacillus phage SBSphiJ7, UniProt P0DW57) | binding, ITC | – | – | 0.284 µM
C[C@H](NC(=O)[C@@H](NC(=O)[C@H](CO)NC(=O)[C@H](Cc1c[nH]cn1)NC(=O)[C@@H]1CCCN1C(=O)[C@H](CC(=O)O)NC(=O)[C@H](CCC(N)=O)NC(=O)[C@H](Cc1ccc(OP(=O)(O)O)cc1)NC(=O)[C@H](Cc1c[nH]cn1)NC(=O)[C@@H]1CCCN1C(=O)[C@H](CC(=O)O)NC(=O)[C@H](CCCNC(=N)N)NC(=O)[C@H](CO)NC(=O)[C@@H]1CCCN1C(=O)[C@H](C)NC(=O)[C@@H]1CCCN1C(=O)[C@H](CC(N)=O)NC(=O)c1ccc2c(c1)C(=O)OC21c2ccc(N(C)C)cc2Oc2cc(N(C)C)ccc21)[C@@H](C)O)C(=O)N[C@@H](CC(=O)O)C(=O)O | Tensin-1, SH2 domain (TNS1, Homo sapiens, UniProt Q9HBL0) | binding | – | – | 1.28 µM
CCS(=O)(=O)N1CC(CC#N)(n2cc(-c3ncnc4[nH]ccc34)cn2)C1 | ORM1 (Homo sapiens, UniProt P02763) | binding, fluorescence quenching | – | 308 K | 40.5 µM
Nc1ncnc2c1ncn2[C@@H]1O[C@H](COP(=O)(O)O)[C@@H](OP(=O)(O)O)[C@H]1O | Thermonuclease (nuc, Staphylococcus aureus, UniProt P00644) | binding, ligand-coupled folding kinetics | – | pH 7.0, 22 °C, 2.7 M urea | 122 ± 7 µM
CC(=O)N[C@H]1[C@@H](OC[C@H](NC(=O)[C@H](CO)NC(C)=O)C(=O)N[C@@H](CO)C(=O)NCC(=O)O)O[C@H](CO)[C@H](O)[C@@H]1O | LE1 (Glycine max, UniProt P05046) | glycan microarray | – | 4 glycans per BSA | 0.054 ± 0.031 µM
CC[C@H](C)[C@H](NC(=O)[C@H](Cc1ccc(OP(=O)(O)O)cc1)NC(=O)[C@H](CCC(=O)O)NC(=O)[C@@H]1CCCN1C(=O)[C@@H](NC(=O)[C@@H]1CCCN1C(=O)[C@H](CC(C)C)NC(=O)[C@H](Cc1ccccc1)NC(=O)[C@@H](NC(=O)[C@H](CC(=O)O)NC(=O)[C@H](CC(=O)O)NC(=O)c1ccc2c(c1)C(=O)OC21c2ccc(N(C)C)cc2Oc2cc(N(C)C)ccc21)[C@@H](C)O)C(C)C)C(=O)N[C@@H](CC(N)=O)C(=O)N[C@@H](CCC(N)=O)C(=O)N[C@@H](CO)C(=O)N[C@H](C(=O)N1CCC[C@H]1C(=O)N[C@@H](CCCCN)C(=O)N[C@@H](CC(=O)O)C(=O)O)C(C)C | Tyrosine-protein kinase ITK/TSK, SH2 domain (ITK, Homo sapiens, UniProt Q08881) | binding | – | – | 0.219 µM
O=C(O)CCCN1CC=C(c2ccccc2)CC1 | Ubiquitin carboxyl-terminal hydrolase 51, ZnF-UBD domain (USP51, Homo sapiens, UniProt Q70EK9) | – | – | – | > 1000 µM
CC[C@H](C)[C@H](NC(=O)c1ccc2c(c1)C(=O)OC21c2ccc(N(C)C)cc2Oc2cc(N(C)C)ccc21)C(=O)N[C@@H](CCC(=O)O)C(=O)N[C@@H](CO)C(=O)N[C@@H](CO)C(=O)N[C@@H](CC(N)=O)C(=O)N[C@@H](Cc1ccc(O)cc1)C(=O)N[C@@H](CCSC)C(=O)N[C@@H](C)C(=O)N1CCC[C@H]1C(=O)N[C@@H](Cc1ccc(OP(=O)(O)O)cc1)C(=O)N[C@@H](CC(=O)O)C(=O)N[C@@H](CC(N)=O)C(=O)N[C@@H](Cc1ccc(O)cc1)C(=O)N[C@H](C(=O)N1CCC[C@H]1C(=O)N[C@@H](CO)C(=O)N[C@@H](C)C(=O)N[C@@H](CC(=O)O)C(=O)O)C(C)C | Guanine nucleotide exchange factor VAV2, SH2 domain (VAV2, Homo sapiens, UniProt P52735) | binding | – | – | 0.065 µM
O=c1cc(-c2ccccc2)oc2c(O)c(O)ccc12 | NTRK2 (Homo sapiens, UniProt Q16620) | binding, tryptophan fluorescence quenching | – | extracellular domain | 0.0146 ± 0.0068 µM
CC(C)(C)C(=O)C(Oc1ccc(Cl)cc1)n1ccnc1 (stereo not drawn) | Cytochrome P450 2D6 (CYP2D6, Homo sapiens, UniProt P10635) | binding | – | 20 min, pH 7.4, purified protein, 2% DMSO | 15.8 µM
CC[C@H](C)[C@H](NC(=O)[C@H](CC(=O)O)NC(=O)[C@H](C)NC(=O)[C@H](Cc1ccc(O)cc1)NC(=O)[C@H](CCCCN)NC(=O)c1ccc2c(c1)C(=O)OC21c2ccc(N(C)C)cc2Oc2cc(N(C)C)ccc21)C(=O)N[C@@H](CCC(=O)O)C(=O)N[C@@H](CO)C(=O)N[C@@H](CO)C(=O)N[C@@H](CC(N)=O)C(=O)N[C@@H](Cc1ccc(OP(=O)(O)O)cc1)C(=O)N[C@@H](CCSC)C(=O)N[C@@H](C)C(=O)N1CCC[C@H]1C(=O)N[C@@H](Cc1ccc(O)cc1)C(=O)N[C@@H](CC(=O)O)C(=O)N[C@@H](CC(N)=O)C(=O)N[C@@H](Cc1ccc(O)cc1)C(=O)N[C@@H](CC(=O)O)C(=O)O | ABL2 SH2 domain | binding | – | – | 0.014 µM
Nc1ncnc2c1ncn2[C@@H]1O[C@H](CN(CC[C@H](N)C(=O)O)Cc2cn(CCNC(=O)c3ccc4c(c3)C(=O)OC43c4ccc(O)cc4Oc4cc(O)ccc43)nn2)[C@@H](O)[C@H]1O | Genome polyprotein, NS5 methyltransferase domain (GP1, West Nile virus, UniProt Q9Q6P4) | binding | – | – | 0.28 µM
CCCC(=O)CC(=O)N[C@H]1CCOC1=O | qscR, ligand-binding domain (Pseudomonas aeruginosa, UniProt G3XD77) | ligand binding, FRET displacement | – | ligand-binding domain | 0.233 µM
Nc1ncnc2c1ncn2[C@@H]1O[C@H](COP(=O)(O)OP(=O)(O)NP(=O)(O)O)[C@@H](O)[C@H]1O | Cell cycle histidine kinase CckA, R374A; cytoplasmic region (Caulobacter vibrioides, UniProt Q9X688, R374A) | isothermal titration calorimetry | Caulobacter crescentus | 12 °C, with: without c-di-GMP | no binding
CC(C)C[C@H](NC(=O)[C@H](CC(C)C)NC(=O)[C@H](CCCCN)NC(=O)c1ccc2c(c1)C(=O)OC21c2ccc(N(C)C)cc2Oc2cc(N(C)C)ccc21)C(=O)NCC(=O)N[C@@H](C)C(=O)N[C@@H](CCC(=O)O)C(=O)N[C@@H](CCC(=O)O)C(=O)N[C@@H](CCCCN)C(=O)N[C@@H](CCC(=O)O)C(=O)N[C@@H](Cc1ccc(OP(=O)(O)O)cc1)C(=O)N[C@@H](Cc1c[nH]cn1)C(=O)N[C@@H](C)C(=O)N[C@@H](CCC(=O)O)C(=O)NCC(=O)NCC(=O)N[C@@H](CCCCN)C(=O)N[C@H](C(=O)N[C@@H](CC(=O)O)C(=O)O)C(C)C | ABL2 SH2 domain | binding | – | – | 1.08 µM
N[C@H](CCC(=O)O)C(=O)O | racE (Bacillus subtilis, UniProt P94556, C74A) | – | – | – | 106 µM

Excerpt of the above:
SMILES | target | test | system | setting | Kd
CC[C@H](C)[C@H](NC(=O)[C@H](Cc1ccc(OP(=O)(O)O)cc1)NC(=O)[C@H](CCC(=O)O)NC(=O)[C@@H]1CCCN1C(=O)[C@@H](NC(=O)[C@@H]1CCCN1C(=O)[C@H](CC(C)C)NC(=O)[C@H](Cc1ccccc1)NC(=O)[C@@H](NC(=O)[C@H](CC(=O)O)NC(=O)[C@H](CC(=O)O)NC(=O)c1ccc2c(c1)C(=O)OC21c2ccc(N(C)C)cc2Oc2cc(N(C)C)ccc21)[C@@H](C)O)C(C)C)C(=O)N[C@@H](CC(N)=O)C(=O)N[C@@H](CCC(N)=O)C(=O)N[C@@H](CO)C(=O)N[C@H](C(=O)N1CCC[C@H]1C(=O)N[C@@H](CCCCN)C(=O)N[C@@H](CC(=O)O)C(=O)O)C(C)C | Tyrosine-protein kinase ITK/TSK, SH2 domain (ITK, Homo sapiens, UniProt Q08881) | binding | – | – | 0.219 µM
O=C(O)CCCN1CC=C(c2ccccc2)CC1 | Ubiquitin carboxyl-terminal hydrolase 51, ZnF-UBD domain (USP51, Homo sapiens, UniProt Q70EK9) | – | – | – | > 1000 µM
